Assay results pooled from the literature.
Protocols differ between the studies behind these lines.
Organism: Staphylococcus epidermidis

With `Oc1c(Br)cc(Br)c2nc3cc(SC(F)(F)F)ccc3nc12` the MIC was 0.1 µM (microbial growth, broth dilution; 12228).
For `CCCCN(CCCC)CC(O)COc1c2ccoc2c(OC)c2oc(CC)cc(=O)c12` (stereo not shown), the MIC was greater than 256 µg/mL (broth microdilution; ATCC 12228; 19 h, 35 °C).
`CC1=C[C@@H](C)[C@H]2[C@@H]3C(=O)C(Cl)(Cl)C(=O)[C@H](C)C(=O)O[C@@H](C)/C=C/C=C\[C@@H](C)[C@@H]3C=C[C@@H]2C1` has an MIC of 0.05 µg/mL (microbial growth, broth dilution).
With `Oc1c(Cl)cc(Cl)c2cccnc12` the MIC was 37.4 µM (microbial growth, agar dilution; ATCC12228).
The MIC of `C[n+]1ccc(/C=C2\Sc3ccccc3N2CCCN2CCCC2)c2ccccc21` is reported as 4 µg/mL (microbial growth, broth dilution; ATCC12228).
`N#Cc1ccc2cccc(O)c2n1` gave an MIC of 1500 µM (microbial growth, agar dilution; ATCC12228).
The MIC of `CCCCCCCCCCCCCCCCCCCCCCSCC1OC(OC2C(N)CC(N)C(OC3OC(CN)C(O)CC3N)C2O)C(O)C(N)C1O` (stereo not shown) is reported as 75 µg/mL.
The MIC of `Oc1c(Br)cc(Br)c2nc3cc(Cc4ccccc4)ccc3nc12` is reported as 0.15 µM (broth microdilution; MRSE 35984).
`O=C(O)c1ccc(-n2cc(/C=N/Nc3cccc(Cl)c3F)c(-c3ccc4ccccc4c3)n2)cc1` gave an MIC of 1.56 µg/mL (broth microdilution with resazurin; 700296).
The MIC of `CCN(CC)CCCN1/C(=C/c2cc(C)[n+](C)c3ccccc23)Sc2ccccc21` is reported as 1 µg/mL (microbial growth, broth dilution; ATCC12228).
For `Oc1c(Br)cc(Br)c2nc3cc(I)ccc3nc12`, the MIC was 0.1 µM (broth microdilution; MRSE 35984; single representative determination).
The MIC of `C[C@H]1COc2c(N3CCN(C)CC3)c(F)cc3c(=O)c(C(=O)N[C@@H](CCCNC(=N)N)C(=O)N[C@@H](Cc4ccc(-c5ccccc5)cc4)C(=O)N[C@@H](CCCNC(=N)N)C(=O)N[C@@H](Cc4ccc(-c5ccccc5)cc4)C(=O)N[C@@H](CCCNC(=N)N)C(N)=O)cn1c23` is reported as 10 µM (broth microdilution; ATCC 700565).
The MIC of `Oc1c(Br)cc(Br)c2nc3c(C(F)(F)F)cc(C(F)(F)F)cc3nc12` is reported as 0.15 µM (microbial growth, broth dilution; 12228).
The MIC of `CCN(CC)CCCN1/C(=C/c2cc[n+](C)c3ccccc23)Sc2ccccc21` is reported as 1 µg/mL (microbial growth, broth dilution; ATCC12228).
`Oc1c(Br)cc(Br)c2nc3cc(Cl)ccc3nc12` has an MIC of 0.1 µM (broth microdilution; MRSE 35984; single representative determination).
`CCCCCCSCC1OC(OC2C(N)CC(N)C(OC3OC(CN)C(O)CC3N)C2O)C(O)C(N)C1O` (stereo not shown) has an MIC of 75 µg/mL.

Excerpt of the above:
`O=C(O)c1ccc(-n2cc(/C=N/Nc3cccc(Cl)c3F)c(-c3ccc4ccccc4c3)n2)cc1` gave an MIC of 1.56 µg/mL (broth microdilution with resazurin; 700296).
`N#Cc1ccc2cccc(O)c2n1` gave an MIC of 1500 µM (microbial growth, agar dilution; ATCC12228).
